Measured values from different studies.
Each numbered part is a random draw from the data of one study; scales do not carry over between parts.

Series 1 — technique: universal PBM; form: double-stranded DNA, one strand shown; medium: in vitro; tested at: 600 nM; reading: higher = stronger binding; quantity: E-score
Target: Sal-like protein 4, full length isoform A (SALL4, Homo sapiens, UniProt Q9UJQ4, residues 1-1053)
Sequence of UniProt Q9UJQ4 (whole entry, looked up): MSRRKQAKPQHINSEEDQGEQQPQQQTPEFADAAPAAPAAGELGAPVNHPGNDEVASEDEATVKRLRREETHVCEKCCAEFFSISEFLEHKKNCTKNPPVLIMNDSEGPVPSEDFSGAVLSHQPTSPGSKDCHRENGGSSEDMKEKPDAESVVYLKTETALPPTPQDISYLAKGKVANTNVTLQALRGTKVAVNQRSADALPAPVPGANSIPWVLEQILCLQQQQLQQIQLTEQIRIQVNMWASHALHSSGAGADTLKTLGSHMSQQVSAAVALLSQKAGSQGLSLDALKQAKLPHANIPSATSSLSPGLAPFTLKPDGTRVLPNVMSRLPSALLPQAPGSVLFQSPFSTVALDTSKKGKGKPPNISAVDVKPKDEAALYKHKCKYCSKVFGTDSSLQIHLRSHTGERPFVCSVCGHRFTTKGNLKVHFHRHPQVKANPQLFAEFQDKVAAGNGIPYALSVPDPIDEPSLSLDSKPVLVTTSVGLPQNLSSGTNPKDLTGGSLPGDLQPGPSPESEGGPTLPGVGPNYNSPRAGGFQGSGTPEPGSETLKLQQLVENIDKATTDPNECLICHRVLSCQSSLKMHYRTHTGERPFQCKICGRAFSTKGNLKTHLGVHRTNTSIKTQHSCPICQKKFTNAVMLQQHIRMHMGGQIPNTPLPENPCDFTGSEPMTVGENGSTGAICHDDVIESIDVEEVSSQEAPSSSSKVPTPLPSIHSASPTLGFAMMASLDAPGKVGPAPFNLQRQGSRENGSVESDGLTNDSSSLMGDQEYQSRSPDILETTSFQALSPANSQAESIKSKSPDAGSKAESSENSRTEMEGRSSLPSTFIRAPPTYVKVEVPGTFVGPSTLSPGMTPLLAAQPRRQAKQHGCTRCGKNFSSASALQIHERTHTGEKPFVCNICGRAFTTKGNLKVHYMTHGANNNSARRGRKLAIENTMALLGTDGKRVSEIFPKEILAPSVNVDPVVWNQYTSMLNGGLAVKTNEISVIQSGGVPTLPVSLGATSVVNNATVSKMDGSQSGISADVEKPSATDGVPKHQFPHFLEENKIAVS
Setting: 8-mer, flanks averaged, mean of replicates
ACCGGACT: -0.188
ACTTTTAC: 0.274
CTACATCC: 0.0551
CCACTAAA: -0.00392
ACCCGAAG: -0.0912
CGAGTGCG: -0.234
CCATAGTA: 0.0192
GAATCCAC: -0.0493
CACAAGAA: 0.029
GCCTAACC: -0.163
ATTAAAAT: 0.398
GACAGGCC: -0.35
GTTGAAAC: 0.031
GGAAAGTA: 0.204
ATCATGTC: 0.084
ATCAATGG: 0.0589
TACGAGAA: 0.0291
ACGGGGCC: -0.353
ACGAGCAC: -0.0787
AGACCGCG: -0.22
TCGACTCA: 0.0983
AGCCGGGG: -0.358

Series 2 — target: UBE2Q1 UBC core domain (UniProt Q7Z7E8); technique: yeast two-hybrid; medium: yeast; setting: mostly zero background; baseline: not given; reading: higher = stronger interaction; quantity: lacZ reporter activity
B1: RNF150 RING domain (UniProt Q9ULK6); chain DKETESDFDNCAVCIEGYKPNDVVRILPCRHLFHKSCVDPWLLDHRTCPMCKMNILKALGIP
B2: RNF32 RING domain (UniProt Q9H0A6); chain SLLQGDSVQPCPICKEEFELRPQVLLSCSHVFHKACLQAFEKFTNKKTCPLCRKNQYQTRVIH
B3: RNF175 RING domain (UniProt Q8N4F7); chain LPTRSLSDNICAVCGQKIIVELDEEGLIENTYQLSCNHVFHEFCIRGWCIVGKKQTCPYCKEKVDLKRMIS
B4: TRIM55 RING domain (UniProt Q9BYV6); chain TMDNLEKQLICPICLEMFTKPVVILPCQHNLCRKCASDIFQASNPYLPTRGGTTMASGGRFRCPSCRHEVVLDRHG
B5: PEX2 RING domain (UniProt P28328); chain DNTLATSGKECALCGEWPTMPHTIGCEHIFCYFCAKSSFLFDVYFTCPKCGTEVHSLQPLK
B6: RNF43 RING domain (UniProt Q68DV7); chain SGSSCSSAPVCAICLEEFSEGQELRVISCLHEFHRNCVDPWLHQHRTCPLCMFNITEGDSFS
B7: RNF112 RING domain (UniProt Q9ULX5); chain QPMAPRELPTCSICLERLRDPISLDCGHDFCIRCFSTHRLPGCEPPCCPECRKICKQKRGLR
B8: TRIM52 RING domain (UniProt Q96A61); chain PMQTLQEEAVCAICLDYFKDPVSISCGHNFCRGCVTQLWSKEDEEDQNEEEDEWEEEEDEEAV
B9: ANKIB1 RING domain (UniProt Q9P2G1); chain LSPGDLDTSLCDICMCSISVFEDPVDMPCGHDFCRGCWESFLNLKIQEGEAHNIFCPAYDCFQLVPVDIIE
Construct (chain): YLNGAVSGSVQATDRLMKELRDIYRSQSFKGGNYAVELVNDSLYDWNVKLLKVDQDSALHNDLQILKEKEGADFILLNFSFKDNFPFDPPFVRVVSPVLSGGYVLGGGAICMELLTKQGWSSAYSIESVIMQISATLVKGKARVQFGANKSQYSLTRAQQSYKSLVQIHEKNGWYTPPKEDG
B1 (RNF150 RING domain): 0
B2 (RNF32 RING domain): 0
B3 (RNF175 RING domain): 0
B4 (TRIM55 RING domain): 0
B5 (PEX2 RING domain): 0
MANWVFCNRCFQPPHRTSCFSLTNCGHVYCDACLGKGKKNECLICKAPCRTVLLSK (RNF212 RING domain (UniProt Q495C1)): 0
B6 (RNF43 RING domain): 0
KIKDLNEHIVCCLCAGYFVDATTITECLHTFCKSCIVKYLQTSKYCPMCNIKIHETQPLL (PCGF1 RING domain (UniProt Q9BSM1)): 0
B7 (RNF112 RING domain): 0
B8 (TRIM52 RING domain): 0
LKQVSIRENCCSLCCDEVADTQLKPCGHSDLCMDCALQLETCPLCRKEIVSRIRQI (RSPRY1 RING domain (UniProt Q96DX4)): 0
QLQDEEDDSLCRICMDAVIDCVLLECGHMVTCTKCGKRMSECPICRQYVVRAVHVF (RNF34 RING domain (UniProt Q969K3)): 0
FLKKLEQSFMCVCCQELVYQPVTTECFHNVCKDCLQRSFKAQVFSCPACRHDLGQNYIMI (UHRF2 RING domain (UniProt Q96PU4)): 0
B9 (ANKIB1 RING domain): 0

Series 3 — technique: protein binding microarray; form: double-stranded DNA, one strand shown; medium: in vitro; tested at: not given; baseline: not given; reading: higher = stronger binding; quantity: E-score
Target: Histone acetyltransferase KAT6A, both winged helices, GST fusion (KAT6A, Homo sapiens, UniProt Q92794, residues 1-181)
Setting: 8-mer, flanks averaged, mean of 2 arrays, mostly near background
Residues (chain): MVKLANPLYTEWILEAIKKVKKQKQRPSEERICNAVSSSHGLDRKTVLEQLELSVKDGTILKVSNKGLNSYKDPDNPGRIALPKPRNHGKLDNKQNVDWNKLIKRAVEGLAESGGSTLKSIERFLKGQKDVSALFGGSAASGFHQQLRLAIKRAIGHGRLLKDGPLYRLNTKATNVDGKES
ACCCAATC: -0.155
GCACCTGA: -0.16
AGTCGCCA: -0.164
CCAAGGAG: -0.177
AGCTGCGC: 0.183
GAGCTATC: 0.0662
AGAGCCCT: -0.211
CACCACAA: -0.0783
CCGAATCC: 0.113
GGATTCGA: -0.0665
ATCTCCGG: 0.0809
GACGTCGA: 0.0859
TACCGCTA: 0.255
GAACATTA: -0.00639
CATTGCCA: -0.175
ACGACGTG: -0.0057
CTTTACGC: 0.223
AGATCTTC: 0.0173
GCCTCTAA: -0.0625
AATGTTAA: -0.0272
ACAGCAAT: -0.0657
ATAGACAC: -0.136
AGCGGGAC: 0.24
AGACAAAC: -0.151
TTAAGAAA: -0.0587

Series 4 — technique: RNA Bind-n-Seq; form: RNA; medium: in vitro; tested at: not given; baseline: input RNA pool; reading: higher = stronger binding; quantity: bound/input enrichment
Target: RING finger protein unkempt homolog, zinc fingers 1-6, GST-SBP tag (UNK, Homo sapiens, UniProt Q9C0B0, residues 30-357)
Setting: RNA with constant flanks, human-mouse chimeric sites, ends assumed
Constant ends, left off below: GGGAGUUCUACAGUCCGACGAUC … CAACAGAGGAUUGAGCAUCA
Target sequence (chain): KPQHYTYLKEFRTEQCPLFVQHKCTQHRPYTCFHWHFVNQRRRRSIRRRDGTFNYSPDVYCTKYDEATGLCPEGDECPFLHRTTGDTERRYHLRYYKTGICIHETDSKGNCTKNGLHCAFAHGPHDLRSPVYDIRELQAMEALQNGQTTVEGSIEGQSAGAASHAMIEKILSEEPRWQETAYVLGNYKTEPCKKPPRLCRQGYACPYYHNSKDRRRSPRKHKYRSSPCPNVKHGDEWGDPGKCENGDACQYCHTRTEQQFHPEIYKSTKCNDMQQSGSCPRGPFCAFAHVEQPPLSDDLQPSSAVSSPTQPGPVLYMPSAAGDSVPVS
CACAGAGCAGCACCUACCUCCUCCUUCUUUCCACACCUGCAAACUCUUUUACUUGGGCUGAAUAUUUAGUGUUAAUUCAUCUCAGCUUUGAGGGCUCCUGUGGCAAAUUCCCGGAUUAAA: 0.534 ratio
GAGUCGAGCAAACUUGAAACUACAGAAUAUCUUGCAGCCUCAGUGUUCACUUGCUUGGCGAUAGCAUUGGGGUUUUAUAGGUUCUGGAAGGAGAACUGACGAUGAUGUCCUGCUGUGUGC: 0.0943 ratio
CCAAUUGUGGAGCAGUACUUGAAGACAAAAAAGAACUCUAGUCAUUUAAUCAUCAAGUACAUUAGCUGCCGCCUGCUGACACUCAUCAUUAUACUGUUAGCGUGUAUCUACCUGGGCUAU: 0.38 ratio
CCUGCUCAGAUCACCAUGAAAGUAAUCCAAGGCCUAUACAGUGGGGUCACCACAGUGGAACUGGACACCCUGGCUGCUGAGACAGCCGCGACCUUGACUACUAAGCACCCUGACUAUGCC: 0.129 ratio
GAUAAGAAAAGCUUGUUGGAGACCCGAUUGCAUGUCACUGGUAGAGACCUGAGGUGUCAAAUAGCUGAAACUUUCGGAUUUCAAGAAAAUUACAUCAAGAUCGUAAUAAAUAAGAAGCAG: 0.463 ratio
GCUCCUCCCCGCUCUGCAGCCUGGGGACUUUUGGCAAGGACCAGAAUCCAGCUUUCUUUUAAAACUCUCAGUGUAACUGUAUCCCGUUUUUUUCUUUUUUUUUUAAAUAGUGUAUUUUUU: 28.2 ratio
